Published values collected from several papers.
Compare with care: the assays were run in different laboratories. ± marks the error that the study gave.

Protein sequences, listed by entry. Tags and fused reporters are not part of them.
UniProt P21918, whole entry: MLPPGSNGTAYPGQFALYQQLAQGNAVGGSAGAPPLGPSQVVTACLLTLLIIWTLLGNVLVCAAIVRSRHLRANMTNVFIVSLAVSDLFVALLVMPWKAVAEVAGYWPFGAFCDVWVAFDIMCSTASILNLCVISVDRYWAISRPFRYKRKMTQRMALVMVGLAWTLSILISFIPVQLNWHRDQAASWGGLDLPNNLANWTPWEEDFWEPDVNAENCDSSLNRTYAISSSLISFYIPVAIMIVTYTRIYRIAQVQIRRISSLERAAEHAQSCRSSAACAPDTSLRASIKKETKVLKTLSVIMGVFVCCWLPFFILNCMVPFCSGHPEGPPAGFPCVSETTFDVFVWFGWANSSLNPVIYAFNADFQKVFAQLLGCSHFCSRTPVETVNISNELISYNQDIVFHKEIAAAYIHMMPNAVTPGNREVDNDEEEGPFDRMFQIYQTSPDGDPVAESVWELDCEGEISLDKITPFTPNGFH

| SMILES | tested on | test | system | setting | scale | endpoint | value |
| --- | --- | --- | --- | --- | --- | --- | --- |
| Cc1ncsc1-c1ccc([C@H](C)NC(=O)[C@@H]2C[C@@H](O)CN2C(=O)[C@@H](NC(=O)COCCOCCOCCOCCNC(=O)c2ccc(CN3CCN(S(=O)(=O)c4ccc(NC(=S)NCc5cccnc5)cc4)CC3)cc2)C(C)(C)C)cc1 | CT26 |  | intracellular | concentration not given |  | NAD+ level | decreased |
| NCCNCCSc1ccccc1 |  |  | Swiss Albino mouse, female | oral, 600 mg/kg, single dose, non-compartmental |  | apparent volume of distribution (Vz/F) | 102 L/kg |
| CC(C)C[C@@H]1NC(=O)[C@H](CCC(=O)O)NC(=O)[C@@H]2CSSC[C@@H]3NC(=O)[C@H](C)NC(=O)[C@@H]4CCCN4C(=O)[C@H](CC(N)=O)NC(=O)[C@H](CSSC[C@H](NC(=O)[C@H](Cc4ccc(O)cc4)NC(=O)[C@H](CC(N)=O)NC(=O)[C@H](CO)NC(=O)[C@H](CO)NC(=O)CN4CCCN(CC(=O)O)CCN(CC(=O)O)CCCN(CC(=O)O)CC4)C(=O)N2)NC(=O)[C@H](CSSC[C@@H](C(=O)N[C@@H](Cc2ccccc2)C(=O)O)NC(=O)CNC(=O)[C@H]([C@@H](C)O)NC3=O)NC1=O [copper-64 labelled] | T84 |  |  | 1 h loading, pH 5.5, 37 °C |  | 64Cu efflux | no effect |
| CN1CC[C@]23c4c5ccc(O)c4O[C@H]2c2ncc(-c4ccc(Cl)cc4)cc2C[C@@]3(OCCCc2ccccc2)[C@H]1C5 |  |  | CD-1 mouse, chemotherapy-induced neuropathy | sc, 3.2 mg/kg, day 1 | relative to: morphine 10 mg/kg | AUC increase | 165% |
| Cc1cc(N)nc(-c2ccc(CNCCc3cccc(F)c3)cc2)c1 | mouse embryonic fibroblasts | cytotoxicity, CellTiter-Glo |  | 72 h |  | IC50 | 11.9 µM |
| COCCCn1nc(-c2ccc(CC(=O)Nc3cccc(F)c3)cc2)c2c(N)ncnc21 | KM12 | cell viability |  |  |  | EC50 | 4.38 ± 0.3 µM |
| NC[C@@H](NC[C@@H]1CCCN1C[C@@H](CO)NC[C@@H](NCCc1ccc(Cl)c(Cl)c1)c1ccccc1)c1ccccc1 | Acinetobacter baumannii | bacterial growth |  | 8 µM, fold shift of IC50, together with: amikacin |  | potentiation of amikacin | 7.9 fold |
| O=S(=O)(O)c1ccc2c(c1)Cc1cc(S(=O)(=O)O)ccc1-2 | Escherichia coli | bacterial growth, broth microdilution | expressing OXA-48 | 4 µg/mL, together with: ampicillin | MIC of ampicillin | MIC of ampicillin | 256 µg/mL |
| C[C@@H]1CN(C)CCN1c1nc(-c2ccc(F)cc2)cs1 |  | tail suspension test | C57BL/6J male mice | 5 mg/kg daily, days 0, 1, 3, learned helplessness model |  | immobility time | decreased |
| C[C@@H](NC(=O)[C@@H](N)Cc1ccc(O)cc1)C(=O)NCC(=O)N[C@@H](Cc1ccccc1)C(N)=O |  | muscle contraction, inhibitor | mouse vas deferens | electrically stimulated |  | IC50 | 0.00072 ± 0.0002 µM |
| CCCCCCCCCCCCNC(=O)N[C@H](C(=O)N[C@H]1/C=C/CCNC(=O)/C=C/[C@H](C)NC1=O)C(C)C | MM1.S bortezomib-resistant | cell viability, CellTiter-Glo |  | 24 h |  | EC50 | 0.0805 ± 0.0058 µM |
| O=C(O)c1ccc(-c2cccc(C(=O)O)c2)cc1 | Escherichia coli | bacterial growth, inhibitor, broth microdilution | expressing OXA-48 | 256 µg/mL, together with: ampicillin | relative to: ampicillin alone | MIC fold reduction | 16 fold |
| CC(C)C[C@@H](NC(=O)[C@H](NC(=O)[C@H]1CCCN1)[C@H](C)O)C(=O)N[C@H](Cc1c[nH]cn1)C(=O)N[C@@H](C(=O)N[C@H](Cc1c[nH]cn1)C(=O)N[C@H](CC(N)=O)C(=O)N[C@H](CCCNC(=N)N)C(=O)N[C@H](CCCNC(=N)N)C(=O)N[C@H](CCCNC(=N)N)C(=O)N[C@H](CCCNC(=N)N)C(=O)N[C@H](CCCNC(=N)N)C(N)=O)[C@H](C)O |  |  | healthy human, plasma | oral, 1 160 mg daily, days 8-12 pre-dose, mean |  | Css trough | 1.28 ng/mL |
| CO[C@H]1[C@H](O[C@H]([C@H]2O[C@@H](n3ccc(=O)[nH]c3=O)[C@H](O)[C@@H]2O)[C@H](NCCCNC(=O)[C@@H](NC(=O)[C@@H](NC(=O)N[C@H](C(=O)O)C(C)C)[C@@H]2CCNC(=N)N2)[C@@H](OC(=O)CCCCCCCCCCCCN(O)C(=N)N)C(C)C)C(N)=O)O[C@H](CN)[C@H]1O | Cryptococcus neoformans | alamar blue |  |  |  | MIC50 | > 35 µg/mL |
| Cc1ccc(-c2csc(NP(=O)(O)OCC3OC(n4c[n+](Cc5ccccc5)c5c(=O)[nH]c(NC(=O)c6ccccc6)nc54)C4OC(C)(C)OC34)n2)cc1 (stereo not shown) | MCF7 | refers to: β-actin |  |  |  | protein level | 5.17 ng/mL |
| NC1=NC2(CCCCC2)N(c2ccc(OCc3cn(CCCCOc4ccc5ccc(=O)oc5c4)nn3)cc2)C(N)=N1 | Mycobacterium bovis BCG |  | resistant, fbiA L109P |  |  | MIC50 | 3.2 µM |
| O=S(=O)(O)c1ccc2cc(S(=O)(=O)O)ccc2c1 | Escherichia coli | bacterial growth, broth microdilution | expressing OXA-48 | 128 µg/mL, together with: ampicillin | MIC of ampicillin | MIC of ampicillin | 64 µg/mL |
| COC(=O)[C@@H]1C=C(OC(=O)c2ccc(CO)cc2)C(=O)[C@H]2[C@@]1(C)CC[C@H]1C(=O)O[C@H](c3ccoc3)C[C@]21C |  | antinociception | C57BL/6 mice male | day 1, cumulative dosing |  | ED50 | 2.35 ± 0.25 mg/kg |
| NC[C@@H](NC[C@@H]1CCCN1C[C@@H](CO)NC[C@@H](NCCc1ccc(-c2ccccc2)cc1)c1ccccc1)c1ccccc1 | Klebsiella pneumoniae | bacterial growth |  | 24 µM, fold shift of IC90, together with: amikacin |  | potentiation of amikacin | 1 fold |

| SMILES | tested on | test | system | setting | scale | endpoint | value |
| --- | --- | --- | --- | --- | --- | --- | --- |
| O=C(NC1CCN(c2ncnc3[nH]cnc23)CC1)c1cccc(S(=O)(=O)Nc2ccc(Cl)cc2)c1 | A549-ACE2 |  |  | 0.2743 µM |  | viability | 108% |
| [11CH3]Nc1ccc(C(=O)C2CCN(C3Cc4ccccc4CC3O)CC2)cc1 (single isomer, unassigned) |  |  | Sprague-Dawley rat, brain | intravenous, dose not given, 5 min |  | radioactivity uptake | 0.57 %ID/g |
| CC(C)C[C@H](NC(=O)[C@H](Cc1ccccc1)C[C@@H](O)[C@H](Cc1ccccc1)NC(=O)OC(C)(C)C)C(=O)N[C@@H](Cc1ccc(C(=O)c2ccccc2)cc1)C(=O)NCCCCCNC(=O)CCCC[C@@H]1SC[C@@H]2NC(=O)N[C@@H]21 | γ-secretase | Aβ42 production | CHO expressing APP |  |  | IC50 | 0.03 µM |
| Nc1n[nH]c(=O)[nH]1 | heterotrophic aerobic bacteria | O2 uptake | activated return sludge |  |  | IC50 | > 32000 µM |
| CC(C)C(C(=O)N(Cc1ccc(C2CCCCC2)cc1)c1ccc(C(=O)O)cc1)N(C)S(=O)(=O)c1c(F)c(F)c(F)c(F)c1F (stereo not shown) | Pa03C | cell growth, MTS |  | 72 h |  | IC50 | 3.7 ± 0.4 µM |
| CC1CCCCCCCCCCCCC(=O)C1 (stereo not shown) | Manis javanica OBP3 Y87A |  |  | concentration not given | relative to: wild type | binding affinity | decreased |
| C[C@H](CS)C(=O)N[C@@H](Cc1c[nH]c2ccccc12)C(=O)O | Enterobacter aerogenes |  | VIM-1 producing | 10 µM, together with: meropenem |  | MIC of meropenem | 16 µg/mL |
| COC(=O)[C@@H](CS)N1C(=O)c2ccc(N(C)C)cc2C1=O | Carbonic anhydrase 2 (CA2, Homo sapiens, UniProt P00918) | probe |  | 10 µM, probe:protein 1:3 | relative to: probe alone | fluorescence increase | 4 to 5 fold |
| NC[C@@H](NC[C@@H]1CCCN1C[C@@H](CO)NC[C@@H](NCCC12CC3CC(CC(C3)C1)C2)c1ccccc1)c1ccccc1 | Klebsiella pneumoniae | bacterial growth |  | 8 µM, fold shift of IC50, together with: amikacin |  | potentiation of amikacin | 1.4 fold |
| O=C(NC1CCN(c2ncnc3[nH]cnc23)CC1)c1cccc(NS(=O)(=O)c2ccc([N+](=O)[O-])cc2)c1 | A549-ACE2 |  |  | 0.823 µM |  | viability | 106% |
| CC1(C)CC[C@]2(C(=O)O)CC[C@]3(C)C(=CC[C@@H]4[C@@]5(C)CC[C@H](OC(=O)NCc6ccccc6)C(C)(C)[C@@H]5CC[C@]43C)[C@@H]2C1 |  |  | C57BL/6 mice, brain | intraperitoneal, 85 µmol/kg |  | AUC(0-t) | 35.9 nmol·h/g |
| COc1ccc(CN[C@@H]2CO[C@H](C(c3ccccc3)c3ccccc3)C[C@H]2O)cc1 | D(1B) dopamine receptor (DRD5, Homo sapiens, UniProt P21918) | radioligand binding |  | 10 µM, together with: [3H]SCH23390 |  | inhibition | 17.2% |
| CO[C@H]1[C@H](O[C@H]([C@H]2O[C@@H](n3ccc(=O)[nH]c3=O)[C@H](O)[C@@H]2O)[C@H](NCCCNC(=O)[C@@H](NC(=O)[C@@H](NC(=O)N[C@H](C(=O)O)C(C)C)[C@@H]2CCNC(=N)N2)[C@@H](OC(=O)CCCCCCCCCCCCNC(=N)N)C(C)C)C(N)=O)O[C@H](CN)[C@H]1O | Aspergillus fumigatus | alamar blue |  |  |  | MIC50 | > 35 µg/mL |
| NC[C@@H](NC[C@@H]1CCCN1C[C@@H](CO)NC[C@@H](NCCC1CC2CCC1C2)c1ccccc1)c1ccccc1 (stereo partly shown) | Acinetobacter baumannii | bacterial growth |  | 16 µM, fold shift of IC90, together with: amikacin |  | potentiation of amikacin | 1.4 fold |
| C=CC(=O)Nc1cc(-n2c(=O)ccc3cnc4ccc(-c5cn[nH]c5)cc4c32)ccc1C | K562 | cell growth |  | 72 h |  | GI50 | > 10 µM |
| CC(CCN[C@H](CN[C@H](CO)CN1CCC[C@H]1CN[C@H](CN)c1ccccc1)c1ccccc1)c1ccccc1 (stereo partly shown) | Klebsiella pneumoniae | bacterial growth |  | 8 µM, fold shift of IC50, together with: amikacin |  | potentiation of amikacin | 1.5 fold |
| Cc1cc(=O)oc2cc(OCCCCn3cc(COc4ccc(N5C(N)=NC(N)=NC56CCCCC6)cc4)nn3)ccc12 | Mycobacterium bovis |  | BCG Tac^r10.2, thyA W98R missense | TA-C-resistant thyA mutant |  | MIC50 | 3.2 µM |
| Oc1cccc2c1OC1CCCC3CN(CC4CC4)CCC231 (single isomer, unassigned) |  | morphine antinociception, antagonist, tail-flick test | male ICR mice | subcutaneous, 10 min before morphine, tested 10 min after, water 55 °C, together with: morphine 10 nmol i.c.v. |  | ED50 | 0.19 mg/kg |

A few entries again:
| SMILES | tested on | test | system | setting | scale | endpoint | value |
| --- | --- | --- | --- | --- | --- | --- | --- |
| CCCCCCCCCCCCNC(=O)N[C@H](C(=O)N[C@H]1/C=C/CCNC(=O)/C=C/[C@H](C)NC1=O)C(C)C | MM1.S bortezomib-resistant | cell viability, CellTiter-Glo |  | 24 h |  | EC50 | 0.0805 ± 0.0058 µM |
| O=C(O)c1ccc(-c2cccc(C(=O)O)c2)cc1 | Escherichia coli | bacterial growth, inhibitor, broth microdilution | expressing OXA-48 | 256 µg/mL, together with: ampicillin | relative to: ampicillin alone | MIC fold reduction | 16 fold |
| CC(C)C[C@@H](NC(=O)[C@H](NC(=O)[C@H]1CCCN1)[C@H](C)O)C(=O)N[C@H](Cc1c[nH]cn1)C(=O)N[C@@H](C(=O)N[C@H](Cc1c[nH]cn1)C(=O)N[C@H](CC(N)=O)C(=O)N[C@H](CCCNC(=N)N)C(=O)N[C@H](CCCNC(=N)N)C(=O)N[C@H](CCCNC(=N)N)C(=O)N[C@H](CCCNC(=N)N)C(=O)N[C@H](CCCNC(=N)N)C(N)=O)[C@H](C)O |  |  | healthy human, plasma | oral, 1 160 mg daily, days 8-12 pre-dose, mean |  | Css trough | 1.28 ng/mL |
| CO[C@H]1[C@H](O[C@H]([C@H]2O[C@@H](n3ccc(=O)[nH]c3=O)[C@H](O)[C@@H]2O)[C@H](NCCCNC(=O)[C@@H](NC(=O)[C@@H](NC(=O)N[C@H](C(=O)O)C(C)C)[C@@H]2CCNC(=N)N2)[C@@H](OC(=O)CCCCCCCCCCCCN(O)C(=N)N)C(C)C)C(N)=O)O[C@H](CN)[C@H]1O | Cryptococcus neoformans | alamar blue |  |  |  | MIC50 | > 35 µg/mL |
| Cc1ccc(-c2csc(NP(=O)(O)OCC3OC(n4c[n+](Cc5ccccc5)c5c(=O)[nH]c(NC(=O)c6ccccc6)nc54)C4OC(C)(C)OC34)n2)cc1 (stereo not shown) | MCF7 | refers to: β-actin |  |  |  | protein level | 5.17 ng/mL |
| NC1=NC2(CCCCC2)N(c2ccc(OCc3cn(CCCCOc4ccc5ccc(=O)oc5c4)nn3)cc2)C(N)=N1 | Mycobacterium bovis BCG |  | resistant, fbiA L109P |  |  | MIC50 | 3.2 µM |
